# Published values collected from several papers.
# Protocols differ between the studies behind these lines. Numbers after ± are the reported error.
SMILES,cell line,test,setting,IC50
COc1cc(NC(=O)Nc2cc(C(F)(F)F)ccc2F)ccc1C(=O)Nc1ccc2[nH]ncc2c1,KM12-Luc (TPM3-NTRK1),"cell growth, CellTiter-Glo",72 h,> 50 µM
CSCCCN1C(=O)C2=Nc3ccccc3CN2C1=S,"CEM/ADR5000 (P-gp overexpressing, multidrug-resistant)","cell viability, resazurin",72 h,inactive
CCNC(=S)NN=Cc1c2ccccc2cc2ccccc12.Cc1ccc(C(C)C)cc1.[Cl-].[Cl-].[Ru+2],CCD-18Co,"cytotoxicity, MTS",72 h,253 ± 6 µM
O=C(Nc1cc(C(F)(F)F)ccc1F)Nc1ccc(C(=O)Nc2ccc3[nH]ncc3c2)cc1C(F)(F)F,KM12-Luc (TPM3-NTRK1),"cell growth, CellTiter-Glo",72 h,27.1 ± 0.43 µM
CC(C)c1ccc(N(C)c2ccc3c(c2)OCC[C@H]3CNc2cnccc2C(=O)O)cc1,NCI-H2347,"cell growth or viability, ATP luminescence",7 days,0.0131 µM
NC(=O)c1ccc(-c2ccccc2Cl)c2c3c([nH]c12)CC[C@H](N)C3,BXPC-3,cell growth or viability,,0.0301 µM
[BH3-][P@+]1(c2ccccc2)CC[C@H](O)CC1,SW480,"cell growth or viability, MTT",72 h,> 100 µM
O=C(O)C(Cc1c[nH]cn1)N1C(=O)c2ccc3c4ccc5c6c(ccc(c7ccc(c2c37)C1=O)c64)C(=O)N(CCN1CCCCC1)C5=O (stereo not drawn),LNCaP,"cell growth or viability, SRB",72 h,95.7 µM
O=C(NCc1cc(F)cc(F)c1)[C@@]1(O)CCN(c2ccc3[nH]ccc3c2)C1=O,KP-4,cell growth or viability,,> 30 µM
CCCCCCCCCC(=O)Oc1c(C)c(OC)c2c(c1C)OC(=O)C(CCCCCCCC)C2(O)C=Cc1ccccc1 (stereo not drawn),KKU-M213,"cell growth or viability, SRB",72 h,> 50 µM
Cn1ncc(-c2ccc3c(=O)[nH]nc(CN)c3c2)c1-c1c(F)c(Cl)cc(OC2CC2)c1C#N,786-O,"cell viability, inhibitor, CellTiter-Glo",120 h,2.29 µM
Cc1ccccc1Nc1c(-c2ccco2)nc2c(Br)cccn12,786-O,,,39.4 µM
Cc1cc(NC(=O)Nc2cc(C(F)(F)F)ccc2F)ccc1C(=O)Nc1ccc2[nH]ncc2c1,KM12-Luc (TPM3-NTRK1),"cell growth, CellTiter-Glo",72 h,> 50 µM
COc1c(C)c(OS(=O)(=O)c2ccccc2)c(C)c(OS(=O)(=O)c2ccccc2)c1C(=O)/C=C/c1ccccc1,KKU-M213,"cell growth or viability, SRB",72 h,> 50 µM
CC(=O)Oc1ccccc1C(=O)[O][Pt]([NH2])([NH2])([Cl])([Cl])[O]C(=O)CCCc1ccccc1,LoVo oxaliplatin-resistant,"cytotoxicity, MTT",72 h,0.09 ± 0.23 µM
Nc1nc2cnc(C(=O)N3CCOC[C@@H]3c3ccc(C(F)(F)F)cc3)cc2c2c1COC2,BXPC-3,cell growth,,0.218 µM
O=C(/C=C/Sc1ccc(C(F)(F)F)cn1)c1ccccc1,HEK293T,"viability, CellTiter-Glo",48 h,5.2 µM
C=CC(=O)N1CCC[C@@H](c2ccc(C(N)=O)c3[nH]ccc23)C1,TMD8 compound-resistant,"cell viability, CellTiter-Glo","4 days, 48 h drug withdrawal",> 10 µM
C=CC(=O)N1CCCC(n2c(=O)c3ncccc3n(Cc3ccc(Oc4ccccc4)cc3)c2=O)C1 (stereo not drawn),SU-DHL10,"cell growth or viability, MTT",72 h,0.3 µM
"Oc1cccc2c1[nH]c1c(C3=CC4(O)CCC=CCCCCN5CCC3C3(CC6C=CCCCCN6C43)C5)nccc12 (single isomer, unassigned; (+))",SK-MEL,"cell growth or viability, neutral red",48 h,0.47 µg/mL
O=[P@]1(c2ccccc2)CC[C@H](O)CC1,SW480,"cell growth or viability, MTT",72 h,> 100 µM
C=CCOc1c(C)c(OC)c(C(=O)/C=C/c2ccccc2)c(OCC=C)c1C,KKU-M213,"cell growth or viability, SRB",72 h,> 50 µM
CSc1sc2c3ccccc3c3ccccc3[n+]2c1C(=O)c1ccccc1,NCI-H1299 (p53 null),"cell viability, MTT",72 h,> 50 µM
CNS(=O)(=O)Nc1nccc(Cc2c(C)c3ccc(Oc4ncccc4F)cc3oc2=O)c1F,GB-1,cell viability,7 days,> 1 µM
COc1c(C)c(OC(=O)c2ccc3ccccc3c2)c(C)c(O)c1C(=O)/C=C/c1ccccc1,KKU-M213,"cell growth or viability, SRB",72 h,> 50 µM
Cc1c2ccnc(C(=O)N[C@H](C)CN(C)C)c2cc2c3cc(OCCCN4CCN(C)CC4)ccc3n(C)c12,HEK293T (G4C2)66-No-ATG-GFP reporter,"RAN translation of r(G4C2)exp, fluorescence reporter",,0.1 µM
CCCCn1cnc2ccc(-c3ccc(NC(=O)CC)nc3)cc2c1=O,NSCLC cells,cell growth,,> 1 µM
CCCC(CCC)C(=O)[O][Pt]([NH2])([NH2])([Cl])([Cl])[O]C(=O)C(Cl)Cl,LoVo oxaliplatin-resistant,"cytotoxicity, MTT",72 h,1.14 ± 0.01 µM
C1=[N+]2CCCC[N+]3=Cc4ccc5[n]4[Au-]23[n]2c1ccc2-c1nc2ccccc2nc1-5.F[P-](F)(F)(F)(F)F,HOP-62 lung cancer,cell growth,,4 µM
O=C1CCC(N2C(=O)c3ccc(N4CCC(C(=O)N5CCC(CCN6CCC(CNC(=O)c7cccc(-c8noc(C(F)(F)F)n8)c7)(c7nc(-c8ccccc8)cs7)CC6)CC5)CC4)cc3C2=O)C(=O)N1 (stereo not drawn),SU-DHL-2,"cell growth or viability, CCK-8",7 days,0.56 µM
O=C(Nc1ccc(C(=O)Nc2ccc3[nH]nc(-c4ccncc4)c3c2)c(C(F)(F)F)c1)Nc1cc(C(F)(F)F)ccc1F,KM12-Luc (TPM3-NTRK1),"cell growth, CellTiter-Glo",72 h,> 50 µM
CCCCCCCCCC(=O)Oc1c(C)c(OC)c2c(/C=C/c3ccccc3)c(CCCCCCCC)c(=O)oc2c1C,KKU-M213,"cell growth or viability, SRB",72 h,> 50 µM
CCOc1cncc(-c2ccc(NC(=O)C3(c4ccnc(NS(=O)(=O)C5CC5)n4)CCOCC3)nc2)n1,OCI-Ly7,"cell growth or viability, ATP luminescence",72 h,0.004 µM

# Some of these lines once more:
SMILES,cell line,test,setting,IC50
NC(=O)c1ccc(-c2ccccc2Cl)c2c3c([nH]c12)CC[C@H](N)C3,BXPC-3,cell growth or viability,,0.0301 µM
[BH3-][P@+]1(c2ccccc2)CC[C@H](O)CC1,SW480,"cell growth or viability, MTT",72 h,> 100 µM
